Measurements gathered from unrelated publications.
“And” joins repeats or separate records; there may be more than shown. Numbers after ± are the reported error.

`[Cl-].[Cl-].[Ru+2].c1ccc(-c2ccccn2)nc1.c1ccc(-c2ccccn2)nc1.c1ccc2cc3nc4c5cccnc5c5ncccc5c4nc3cc2c1` gave a GI50 of 30200 nM (SK-MEL-28; cell growth, SRB; dark, normoxia).
`O=C(C[Se]C(=O)c1cc2ccccc2[nH]1)Nc1cccc(C(F)(F)F)c1` — result for “mean growth percent”: -79.1% (NCI60 ovarian subpanel; cell growth; 10 µM, 48 h, one-dose).
`O=C(Nc1nnc2c1c(-c1ccc(Cl)cc1)nc1sc(=Cc3ccco3)c(=O)n12)c1ccccc1` (mixture of isomers) gave a cell growth of 46.4% (SF-539; SRB; 10 µM, NCI60 single-dose screen; reference: untreated).
For `NC1=C(Cl)C(=O)c2cccc([N+](=O)[O-])c2C1=O`, the selectivity index was 2.31 (MOLT-3; XTT; reference: IC50 MRC-5 over IC50 MOLT-3).
Under “log2 fold change”, `CC(=O)NCCCN(C)CCCNc1cccc2c1C(=O)c1cccc(NCCCN(C)CCCNC(C)=O)c1C2=O` is recorded as -3.12 (SAS; RNA-Seq, refers to: IL18R1 mRNA; 1 µM, 24 h; reference: untreated cells).
The growth percent of `CN(C)CCN1CCN(c2ccc3nc(-c4ccc5nc(-c6ccc(C(F)(F)F)cc6)[nH]c5c4)[nH]c3c2)CC1` is reported as 78.7% (IGROV-1; SRB; 10 µM, 48 h).
`CO[C@@H]1[C@@H](OC(N)=O)[C@@H](O)[C@H](Oc2ccc3c(O)c(NC(=O)c4ccc(O)c(CC=C(C)C)c4)c(=O)oc3c2C)OC1(C)C` has a colony count of 0.1 (HCT-116 BRCA2-/-; 250 µM, replicate 1).
With `CCN(CC)CC(=O)Nc1cccc(-n2cc(-c3ccc4ccc(-c5cn(-c6cccc(NC(=O)CN(CC)CC)c6)nn5)cc4c3)nn2)c1` the fold regulation was 1.08 (RCC4; PCR angiogenesis array, refers to: LECT1; 5 x IC50, 6 h, normoxia; reference: untreated).
With `CCCCCCc1cccc([C@H](O)C[C@H](CO)NC(=O)CCCCCCCCCCBr)c1` the ceramide level was 12500 pmol/sample and 10800 pmol/sample and 13400 pmol/sample (HeLa; CERT activity, HPLC-MS/MS lipidomics, refers to: ceramide 24; 1 µM, 24 h, not cell-number normalised).
With `CCN(C(=O)c1cc(F)ccc1Oc1nncnc1N1CCC2(C1)CN([C@H](CCCN(C)CCOC)C(C)C)C2)C(C)C` the GI50 was greater than 10000 nM (SK-N-SH; cell growth; 72 h).
`CCOc1cncc(-c2ccc(NC(=O)C3(c4ccnc(NS(=O)(=O)C5CC5)n4)CCOCC3)nc2)n1` gave an IC50 of 111 nM (Daudi; cell growth or viability, ATP luminescence; 72 h).
For `O=C(C[Se]C(=O)c1ccc2ccccc2n1)Nc1cccc(C(F)(F)F)c1`, “mean growth percent” read -91.7% (NCI60 non-small-cell lung subpanel; cell growth; 10 µM, 48 h, one-dose).
`Cn1ncc2cc(-c3cncc(Cl)c3N3CCC4(CCNC4=O)CC3)ccc21` — result for “log2 fold change”: 3.38 (LS174T; gene expression, microarray, refers to: NOD2 (CARD15) mRNA; concentration not given, 24 h; reference: untreated cells).
For `CC(C)Cc1ccc(C(C)C(=O)[Se]CC(=O)Nc2cccc(C(F)(F)F)c2)cc1` (stereo not drawn), “mean growth percent” read -90% (NCI60 non-small-cell lung subpanel; cell growth; 10 µM, 48 h, one-dose).
The cytotoxicity of `CC(=O)OC[C@H]1O[C@@H](n2cc(CSc3nc4ccccc4n3Cc3cn([C@@H]4O[C@H](COC(C)=O)[C@@H](OC(C)=O)C(OC(C)=O)[C@H]4OC(C)=O)nn3)nn2)[C@H](OC(C)=O)C(OC(C)=O)[C@@H]1OC(C)=O` (stereo in doubt) is reported as 86.4% (HEK293; MTT; 250 ppm).
`Cc1c(Cl)cccc1Nc1ccccc1C(=O)[Se]CC(=O)Nc1cccc(C(F)(F)F)c1` — result for “mean growth percent”: -86.9% (NCI60 non-small-cell lung subpanel; cell growth; 10 µM, 48 h, one-dose).
For `COc1cc([C@@H]2O[C@@H](c3cc(OC)c(O[C@@H]4O[C@H](CO)[C@@H](O)[C@H](O)[C@H]4O)c(OC)c3)[C@H](CO)[C@H]2CO)cc(OC)c1O`, protein expression read “increased” (differentiating 3T3-L1 pre-adipocytes; Western blot, refers to: p18 p21 p27; concentration not given, day 1, mitotic clonal expansion; reference: untreated).
For `COP(=O)(OC)OC[C@H]1OC(O)(COP(=O)(O)O)[C@@H](O)[C@@H]1O` (stereo partly drawn), the cell proliferation was 61.7% and 45.9% and 67.2% (HepG2 sgCTRL; CCK-8; concentration not given; reference: control).
For `CC(C)(C)c1cc(-c2ccc3cccnc3n2)nc(-c2ccc3cccnc3n2)c1.COc1ccncc1.[Cl-].[Cl-].[Ru+2].c1ccc2cc3nc4c5cccnc5c5ncccc5c4nc3cc2c1`, the phototherapeutic index was 174 (SK-MEL-28; visible light, oxygen 18.5%; reference: dark EC50 over light EC50).
For `COc1cc(N2CCN(C(=O)C3CCCN3)CC2)ccc1Nc1ncc(Cl)c(Nc2ccccc2P(C)(C)=O)n1` (stereo not drawn), “early apoptotic cells” read 4.5% (Ba/F3 EML4-ALK; annexin V flow cytometry; concentration not given, 6 h).
`CN1CCCNC(=O)c2cccc(c2)C(=O)NCCCN(C)CCCNc2cccc3c2C(=O)c2cccc(c2C3=O)NCCC1` — result for “log2 fold change”: -0.615 (SAS; RNA-Seq, refers to: EIF2S3 mRNA; 1 µM, 6 h; reference: untreated cells).
For `CN(C)c1ccc(-n2cc(COC(=O)[C@]3(C)C=C(C(=O)OC(C)(C)C)C(=O)CC3)nn2)cc1`, the pERK/ERK ratio was 0.2 (HeLa; quantitative western blot; concentration not given, 4 (unit not given), added: EGF).
Under “mean growth percent”, `O=C(C[Se]C(=O)c1cccnc1Nc1cccc(C(F)(F)F)c1)Nc1cccc(C(F)(F)F)c1` is recorded as -89.8% (NCI60 non-small-cell lung subpanel; cell growth; 10 µM, 48 h, one-dose).
The colony survival of `COc1ccccc1-c1ccncc1C(=O)Nc1nnc(OCc2ccc(Cl)cc2)s1` is reported as 90.6% (MDA-MB-231; 1.5 µM, mean of 3 replicates; reference: untreated).
`C1=[N+]2CCCC[N+]3=Cc4ccc5[n]4[Au-]23[n]2c1ccc2-c1nc2ccccc2nc1-5.F[P-](F)(F)(F)(F)F` gave a TGI of 4 -log M (SR; NCI60 five-dose screen).
The live cells of `Cc1ccc([N+](=O)[O-])cc1S(=O)(=O)N(C)/N=C/c1cnc2ccc(Br)cn12` is reported as 44.5% (HuT78; 200 nM).
Under “log2 fold change”, `Cc1ncsc1-c1ccc(C(C)NC(=O)C2CC(O)CN2C(=O)C(NC(=O)CCCCCCCCCCN2CCCC(Nc3ncc(Cl)c(Nc4ccccc4S(=O)(=O)C(C)C)n3)C2)C(C)(C)C)cc1` (stereo not drawn) is recorded as -1.46 (22Rv1; RNA-seq, refers to: LMLN mRNA; concentration not given; reference: DMSO).
`Cc1nc(=S)[nH]c(C)c1/N=N/c1nnc(S)s1` gave an inhibition of 14.4 ± 0.869% (Vero; cell viability, MTT; 1.25 µg/mL).
Under “mean growth percent”, `O=C(C[Se]C(=O)c1cc2ccccc2o1)Nc1cccc(C(F)(F)F)c1` is recorded as -79.3% (NCI60 ovarian subpanel; cell growth; 10 µM, 48 h, one-dose).
The IC50 of `CNS(=O)(=O)Nc1nccc(Cc2c(C)c3ccc(Oc4ncccc4F)cc3oc2=O)c1F` is reported as 0.503 nM (IPC-298; cell viability; 7 days).
With `COC(=O)c1cc(NC2=NC(=O)C(=Cc3ccc(N(C)C)cc3)S2)ccc1OC(C)=O` the metabolite level was -0.44 fold change (MCF7; GC-MS, refers to: Dodecanoic acid; 1 µM; reference: DMSO).
For `CC(C)c1ccc(N(C)c2ccc3c(c2)OCC[C@H]3CNc2cnccc2C(=O)O)cc1`, the IC50 was 6.85 nM (NCI-H524; cell growth or viability, ATP luminescence; 7 days).
The neuron degeneration of `C=CC(=O)N1[C@H](c2ccc3c(c2)OCO3)c2[nH]c3ccccc3c2C[C@@H]1C(=O)NC1CC1` is reported as 20.3% and 17.1% (rat DRG neurons; 3.333 µM, 48 h, added: vincristine 40 nM).
